# Measurements from different studies.
# Parts stem from different laboratories: compare values within a part only.
# Sequence of UniProt P54753 (whole entry, looked up): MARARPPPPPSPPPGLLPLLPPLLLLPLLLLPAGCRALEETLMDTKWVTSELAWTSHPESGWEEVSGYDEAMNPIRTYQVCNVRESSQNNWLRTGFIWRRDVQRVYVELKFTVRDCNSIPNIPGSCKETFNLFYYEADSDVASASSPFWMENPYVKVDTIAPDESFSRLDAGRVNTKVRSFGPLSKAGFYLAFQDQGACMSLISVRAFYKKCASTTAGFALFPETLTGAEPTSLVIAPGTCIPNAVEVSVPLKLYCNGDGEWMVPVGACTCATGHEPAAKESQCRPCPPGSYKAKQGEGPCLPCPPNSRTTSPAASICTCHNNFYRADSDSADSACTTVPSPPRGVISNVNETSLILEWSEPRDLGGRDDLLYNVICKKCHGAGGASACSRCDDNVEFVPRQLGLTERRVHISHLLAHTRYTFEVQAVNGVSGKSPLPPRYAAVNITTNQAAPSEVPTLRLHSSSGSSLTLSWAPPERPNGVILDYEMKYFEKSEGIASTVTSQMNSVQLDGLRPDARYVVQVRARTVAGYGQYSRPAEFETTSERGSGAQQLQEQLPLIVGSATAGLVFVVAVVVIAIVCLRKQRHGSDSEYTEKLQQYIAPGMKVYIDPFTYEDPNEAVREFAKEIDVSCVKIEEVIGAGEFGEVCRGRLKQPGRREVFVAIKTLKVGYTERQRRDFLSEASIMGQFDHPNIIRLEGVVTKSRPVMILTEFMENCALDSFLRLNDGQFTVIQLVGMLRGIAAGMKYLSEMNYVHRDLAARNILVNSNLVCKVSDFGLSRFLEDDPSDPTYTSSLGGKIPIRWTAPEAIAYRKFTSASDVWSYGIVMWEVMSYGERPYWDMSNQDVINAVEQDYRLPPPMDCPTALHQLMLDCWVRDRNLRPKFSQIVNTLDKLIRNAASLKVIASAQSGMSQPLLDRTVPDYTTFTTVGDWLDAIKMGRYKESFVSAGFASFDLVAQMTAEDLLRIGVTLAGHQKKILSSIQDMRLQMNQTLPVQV
# Sequence of UniProt Q16659 (whole entry, looked up): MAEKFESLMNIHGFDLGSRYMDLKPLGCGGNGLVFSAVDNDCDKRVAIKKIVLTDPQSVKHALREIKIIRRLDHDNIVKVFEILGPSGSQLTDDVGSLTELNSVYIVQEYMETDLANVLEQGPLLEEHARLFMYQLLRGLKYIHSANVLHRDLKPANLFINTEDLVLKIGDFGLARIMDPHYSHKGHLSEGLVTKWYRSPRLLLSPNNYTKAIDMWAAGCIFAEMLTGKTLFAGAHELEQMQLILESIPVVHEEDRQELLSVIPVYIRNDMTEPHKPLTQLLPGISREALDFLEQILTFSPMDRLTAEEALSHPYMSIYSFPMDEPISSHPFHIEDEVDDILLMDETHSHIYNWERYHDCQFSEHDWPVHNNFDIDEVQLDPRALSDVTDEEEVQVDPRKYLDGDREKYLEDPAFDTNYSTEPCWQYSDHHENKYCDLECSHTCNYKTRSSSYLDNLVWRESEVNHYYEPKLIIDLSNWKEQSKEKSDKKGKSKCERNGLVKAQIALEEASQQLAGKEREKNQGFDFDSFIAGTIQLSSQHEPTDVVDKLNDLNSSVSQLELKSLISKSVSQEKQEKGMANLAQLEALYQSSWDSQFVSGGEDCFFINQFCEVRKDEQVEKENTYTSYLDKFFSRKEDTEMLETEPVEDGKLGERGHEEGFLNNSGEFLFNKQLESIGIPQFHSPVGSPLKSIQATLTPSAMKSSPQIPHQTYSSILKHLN
# Sequence of UniProt Q02763 (whole entry, looked up): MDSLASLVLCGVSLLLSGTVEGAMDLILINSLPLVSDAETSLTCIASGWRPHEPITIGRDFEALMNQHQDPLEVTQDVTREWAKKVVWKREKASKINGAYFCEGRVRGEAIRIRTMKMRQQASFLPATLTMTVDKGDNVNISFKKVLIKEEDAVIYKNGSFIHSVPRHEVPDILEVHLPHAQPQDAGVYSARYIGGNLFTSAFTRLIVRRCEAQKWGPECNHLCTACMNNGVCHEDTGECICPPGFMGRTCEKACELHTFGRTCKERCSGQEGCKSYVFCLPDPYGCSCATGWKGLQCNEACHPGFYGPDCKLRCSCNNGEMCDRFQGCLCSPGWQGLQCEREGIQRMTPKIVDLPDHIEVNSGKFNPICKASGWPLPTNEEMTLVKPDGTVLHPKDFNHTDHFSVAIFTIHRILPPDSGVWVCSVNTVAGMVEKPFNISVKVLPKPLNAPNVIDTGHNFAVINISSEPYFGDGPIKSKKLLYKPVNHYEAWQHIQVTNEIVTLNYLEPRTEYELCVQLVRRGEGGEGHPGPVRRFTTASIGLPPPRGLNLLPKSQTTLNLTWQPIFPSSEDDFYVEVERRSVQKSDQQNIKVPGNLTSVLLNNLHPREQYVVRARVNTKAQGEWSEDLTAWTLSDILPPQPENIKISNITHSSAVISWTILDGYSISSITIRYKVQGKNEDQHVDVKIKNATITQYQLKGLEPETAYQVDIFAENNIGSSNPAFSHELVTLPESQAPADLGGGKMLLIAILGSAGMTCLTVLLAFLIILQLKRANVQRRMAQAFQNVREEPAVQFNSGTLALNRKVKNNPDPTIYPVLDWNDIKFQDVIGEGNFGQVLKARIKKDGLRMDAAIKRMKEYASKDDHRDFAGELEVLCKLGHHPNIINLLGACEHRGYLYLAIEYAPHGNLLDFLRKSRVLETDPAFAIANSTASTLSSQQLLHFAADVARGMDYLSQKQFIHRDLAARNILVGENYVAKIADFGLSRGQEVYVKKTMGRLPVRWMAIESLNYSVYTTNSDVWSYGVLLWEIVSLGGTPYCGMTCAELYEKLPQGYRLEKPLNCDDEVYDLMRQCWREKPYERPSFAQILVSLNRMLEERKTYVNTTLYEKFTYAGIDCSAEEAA
# Sequence of UniProt Q8IVW4 (whole entry, looked up): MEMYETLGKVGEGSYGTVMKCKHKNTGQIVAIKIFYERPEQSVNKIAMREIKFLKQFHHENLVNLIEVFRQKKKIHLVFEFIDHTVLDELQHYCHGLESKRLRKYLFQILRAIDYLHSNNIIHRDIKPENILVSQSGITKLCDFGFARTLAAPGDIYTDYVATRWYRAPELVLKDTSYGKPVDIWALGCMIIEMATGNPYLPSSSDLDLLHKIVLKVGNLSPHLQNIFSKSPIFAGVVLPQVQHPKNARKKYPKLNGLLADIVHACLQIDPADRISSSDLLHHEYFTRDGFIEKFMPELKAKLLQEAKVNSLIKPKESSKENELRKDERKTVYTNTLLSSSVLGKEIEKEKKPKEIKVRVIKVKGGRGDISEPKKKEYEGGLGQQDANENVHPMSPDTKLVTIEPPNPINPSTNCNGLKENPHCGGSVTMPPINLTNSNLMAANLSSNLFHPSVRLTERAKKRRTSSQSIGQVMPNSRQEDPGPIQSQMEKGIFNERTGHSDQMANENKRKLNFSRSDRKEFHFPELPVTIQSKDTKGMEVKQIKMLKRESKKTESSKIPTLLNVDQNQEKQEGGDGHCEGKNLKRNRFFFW
# Sequence of UniProt O14757 (whole entry, looked up): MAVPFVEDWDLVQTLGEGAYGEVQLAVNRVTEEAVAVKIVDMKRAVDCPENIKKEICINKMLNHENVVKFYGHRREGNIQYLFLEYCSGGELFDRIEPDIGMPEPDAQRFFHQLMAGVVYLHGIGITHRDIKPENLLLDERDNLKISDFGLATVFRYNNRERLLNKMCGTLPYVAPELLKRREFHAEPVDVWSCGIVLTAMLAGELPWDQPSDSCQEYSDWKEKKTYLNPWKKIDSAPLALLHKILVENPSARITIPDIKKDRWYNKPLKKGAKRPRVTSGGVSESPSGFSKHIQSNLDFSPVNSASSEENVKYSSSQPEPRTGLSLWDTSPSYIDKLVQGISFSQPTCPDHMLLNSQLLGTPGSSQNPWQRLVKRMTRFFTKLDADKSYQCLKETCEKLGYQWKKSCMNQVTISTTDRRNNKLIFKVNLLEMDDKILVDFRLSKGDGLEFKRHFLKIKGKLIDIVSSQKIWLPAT
# Sequence of UniProt P50613 (whole entry, looked up): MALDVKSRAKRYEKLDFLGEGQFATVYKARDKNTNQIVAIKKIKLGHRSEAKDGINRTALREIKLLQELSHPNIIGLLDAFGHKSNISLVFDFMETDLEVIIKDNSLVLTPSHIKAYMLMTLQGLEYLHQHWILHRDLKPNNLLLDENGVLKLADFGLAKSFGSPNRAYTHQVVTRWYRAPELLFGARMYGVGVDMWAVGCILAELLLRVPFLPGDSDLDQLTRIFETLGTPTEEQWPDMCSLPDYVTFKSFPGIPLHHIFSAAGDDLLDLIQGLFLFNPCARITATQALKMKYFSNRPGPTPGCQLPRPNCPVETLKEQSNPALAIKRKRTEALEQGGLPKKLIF
# Sequence of UniProt Q9UPE1 (whole entry, looked up): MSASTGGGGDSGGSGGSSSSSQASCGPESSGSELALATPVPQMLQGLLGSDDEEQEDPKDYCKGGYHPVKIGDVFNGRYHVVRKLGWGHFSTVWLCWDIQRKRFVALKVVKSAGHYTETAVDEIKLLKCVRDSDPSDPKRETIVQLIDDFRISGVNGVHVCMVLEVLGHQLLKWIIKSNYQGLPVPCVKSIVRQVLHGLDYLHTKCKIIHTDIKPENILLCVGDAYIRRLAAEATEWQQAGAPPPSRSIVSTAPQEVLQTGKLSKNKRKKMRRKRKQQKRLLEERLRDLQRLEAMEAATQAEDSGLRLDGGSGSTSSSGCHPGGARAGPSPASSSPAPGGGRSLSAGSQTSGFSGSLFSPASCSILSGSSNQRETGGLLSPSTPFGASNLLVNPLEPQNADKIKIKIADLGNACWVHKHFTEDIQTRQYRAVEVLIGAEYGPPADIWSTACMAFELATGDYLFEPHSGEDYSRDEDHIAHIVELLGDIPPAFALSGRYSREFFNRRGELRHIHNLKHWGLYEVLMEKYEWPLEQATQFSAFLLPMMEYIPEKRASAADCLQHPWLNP

# Series 1 — Substance: FBL (Homo sapiens, UniProt P22087); method: cross-linking MS; sample: cell fractions; added: DSSO
partner,cross-linked residues
"NOL7 (Homo sapiens, UniProt Q9UMY1)",K318 to K178
"HAUS7 (Homo sapiens, UniProt Q99871)",K131 to S62
"BMS1 (Homo sapiens, UniProt Q14692)",K102 to K1206

# Series 2 — method: competition with immobilised ligand; tested at: 1 µM
# Compound: CC1=C(C#N)C(c2ccc3c(c2)c(NC(=O)c2ccccc2C)nn3C)C(C#N)=C(C)N1
target,assay,remaining binding [%]
"CDKL3 (Homo sapiens, UniProt Q8IVW4)",binding,79
"TEK (Homo sapiens, UniProt Q02763)",cell-free assay,98
"CDC42BPA (Homo sapiens, UniProt Q5VT25)",cell-free assay,100
"SYK (Homo sapiens, UniProt P43405)",cell-free assay,100
"SRPK3 (Homo sapiens, UniProt Q9UPE1)",cell-free assay,100
"EPHB3 (Homo sapiens, UniProt P54753)",cell-free assay,99
"CSF1R (Homo sapiens, UniProt P07333)",cell-free assay,99
"CDK7 (Homo sapiens, UniProt P50613)",cell-free assay,58
"PI4KB (Homo sapiens, UniProt Q9UBF8)",cell-free assay,30
"STK38L (Homo sapiens, UniProt Q9Y2H1)",binding,98
"MAPK6 (Homo sapiens, UniProt Q16659)",cell-free assay,97
"CHEK1 (Homo sapiens, UniProt O14757)",cell-free assay,81
"FLT4 (Homo sapiens, UniProt P35916)",cell-free assay,100

# Series 3 — method: protein-binding microarray; form: double-stranded DNA, one strand shown; sample: in vitro; tested at: 2540 nM top; notes: 60-bp whole probe; added: salmon DNA 0.4 mg/ml; relative to: random background probes; reading: higher = stronger binding; shared flanks, not repeated: GCCTAGCAC … GTCTTGATTCGCTTGACGCTGCTG
# Target: Interferon regulatory factor 3, full length, phosphomimetic (IRF3, Homo sapiens, UniProt Q14653, residues 1-427, S386D/S396D/S398D/S402D/T404D/S405D)
# Construct (chain): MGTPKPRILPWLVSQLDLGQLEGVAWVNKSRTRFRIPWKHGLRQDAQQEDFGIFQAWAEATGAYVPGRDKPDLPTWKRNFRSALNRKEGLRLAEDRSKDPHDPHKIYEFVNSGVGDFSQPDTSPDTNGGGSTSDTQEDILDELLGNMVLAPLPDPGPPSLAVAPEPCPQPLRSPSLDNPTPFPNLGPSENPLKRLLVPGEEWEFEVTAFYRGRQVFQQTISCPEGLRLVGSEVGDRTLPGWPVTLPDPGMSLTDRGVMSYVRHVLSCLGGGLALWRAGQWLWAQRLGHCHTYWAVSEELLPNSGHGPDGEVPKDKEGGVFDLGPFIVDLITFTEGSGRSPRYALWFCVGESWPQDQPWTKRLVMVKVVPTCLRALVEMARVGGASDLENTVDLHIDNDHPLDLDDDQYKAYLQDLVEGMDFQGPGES
Sequence,fitted relative affinity [z-score]
TTAGTACTGAGACTGGATTAGTGCTAG,-0.326
TCATGTTTCCATCTCTCACTGTGCTAG,6.98
TCATTTTTTTTTTTACTACTGTGCTAG,1.5
GACGGTCTCCTTATCCAGACGTGCTAG,3.14
GAGGATTTCGGGTATCGAGACGTGCTA,0.44
TTCTTACTTTGGGATTCTGAGTGCTAG,0.741
GACCATATCGGGTATCGAGACGTGCTA,0.94
GACGGTTTTGGACTGGGGACGTGCTAG,1.11

# Single results of other studies — organism: Sarcocystis neurona; effect on: parasite growth; tested at: 10 µM; notes: secondary screen
SMILES,inhibition [%]
NS(=O)(=O)c1cc(C(=O)O)c(NCc2ccco2)cc1Cl,-15
CN1CCC(=C2c3ccccc3C=Cc3ccccc32)CC1,3.2
